Measured values pooled from the literature.
Protocols differ between the studies behind these lines. ± gives the spread as reported.
Organism: SARS-CoV-2

SMILES | assay | system | conditions | EC50 [µM]
CC[C@@H](C)[C@@H](C(=O)OC)n1[se]c2ccccc2c1=O | viral replication, RT-qPCR | Vero | 48 h | 11
CNCc1ccc(C)c(C(=O)N[C@H](C)c2cccc3ccccc23)c1 | viral replication | Vero C1008, WK-521 ancestral Wuhan |  | 23.6 ± 0.4
[2H]C1([2H])C[C@@H](C[C@@H](C#N)NC(=O)[C@@H]2[C@@H]3[C@H](CN2C(=O)[C@@H](NC(=O)C(F)(F)F)C(C)(C)C)C3(C)C)C(=O)N1 | viral replication | Canada/VIDO 01/2020 | with: efflux inhibitor CP-100356 | 0.06
CC(=O)OC1(C)CC(C=C(C)CCC=C(C)C)OC2(C=C(CO)C3CC(=O)C(C)=CC3O2)C1 (stereo not drawn) | viral replication, measured: dsRNA | Calu-3, Delta B.1.617.2 |  | 3.9
CCOC(=O)c1c(CS(=O)(=O)c2ccc(Cl)cc2)n(C)c2cc(Br)c(O)c(CN(C)C)c12 |  | Vero C1008, MEX-BC2/2020 | 96 h | > 25
O=C1CC(c2ccccc2)Oc2ccccc21 (stereo not drawn) | viral replication | Vero |  | > 100
C[C@](C(=O)NC1CCC(F)(F)CC1)(c1cncnc1)N(C(=O)[C@H](F)Cl)c1ccc(OC(F)(F)F)cc1 | viral replication | Vero |  | 0.068
Cc1ccc(N2CC3CC(C2)N3)cc1C(=O)NC1(c2ccc3c4c(cccc24)C(=O)N3C)CC1 | viral replication | Vero C1008, wild type |  | 0.04
O=C(NC1CCC(F)(F)CC1)C(c1cncnc1)N(C(=O)C(F)Cl)c1ccc(-c2cncs2)cc1 (stereo not drawn) | viral replication | Vero |  | 2.15
O=C(CNc1ccc(OC(F)(F)F)cc1)N1CCCC2=CC3CC(CN4CCCCC34)C21 (stereo not drawn) | pseudovirus entry |  | pseudovirus | 19.3
N#Cc1ccccc1C[C@@H](N)C(=O)N[C@H](Cc1ccc(Cl)cc1Cl)C(=O)N[C@H](CC(=O)NC(N)=O)Cc1ccc(F)cc1 | viral replication | USA-WA1/2020 | 24 h | > 10
O=C(c1ccc(Cl)c(Cl)c1)N1CCCC2=CC3CC(CN4CCCCC34)C21 (stereo not drawn) | pseudovirus entry |  | pseudovirus | 197
COc1ccc(F)c2[nH]c(C(=O)N[C@@H](CC(C)C)C(=O)N[C@@H](C[C@@H]3CCNC3=O)C(=O)c3nc4ccccc4s3)cc12 | viral replication, RT-qPCR | VeroE6, WK-521 |  | 3.4 ± 0.15
CN(C)CCCCNC(=O)C[C@H](Cc1ccc(F)cc1)NC(=O)[C@@H](Cc1ccc(Cl)cc1)NC(=O)[C@H](N)Cc1ccccc1C#N | viral replication | USA-WA1/2020 | 24 h | > 10
C[C@@H]1O[C@@H](n2c3ccccc3c3c4c(c5c6ccccc6[nH]c5c32)CNC4=O)C[C@@H](N)[C@H]1O | viral replication, measured: dsRNA | Calu-3, Omicron BA.2 |  | 0.394
Cc1ccc(OCCN(C)C)cc1C(=O)N[C@H](C)c1cc(-c2cnn(C)c2)cc(-c2ccn(C)n2)c1 | viral replication | Caco-2, icSARS-CoV-2-nLuc reporter |  | 1.15
CC(C)C(=O)OC[C@H]1O[C@@](C#N)(n2ccc(N)nc2=O)[C@H](O)[C@@H]1O | viral replication, qRT-PCR of viral RNA | Calu-3, Washington |  | 4.5 ± 0.3
COCCCCNC(=O)CC(Cc1ccc(F)cc1)NC(=O)C(Cc1ccc(Cl)cc1Cl)NC(=O)C(N)Cc1ccccc1C#N (stereo not drawn) | viral replication | USA-WA1/2020 | 24 h | 0.4
O=C(c1cncc2cc[nH]c12)N1CCC(=C2c3ccccc3CS(=O)(=O)c3ccccc32)CC1 | viral replication | WA1 |  | 0.01
CN1CCN(CCCNC(=O)C[C@H](Cc2ccc(F)cc2)NC(=O)[C@@H](Cc2ccc(Cl)cc2Cl)NC(=O)[C@H](N)Cc2ccccc2C#N)CC1 | viral replication | USA-WA1/2020 | 24 h | 0.8
CC1CCc2c(sc3ncnc(Sc4nnc(CN5CCCC5)o4)c23)C1 (stereo not drawn) | viral replication |  |  | > 100
Clc1ccc(CN2CCCC3=CC4CC(CN5CCCCC45)C32)c(Cl)c1 (stereo not drawn) | viral replication |  |  | > 3750
CCn1ccc(-c2cc(-c3cnn(C)c3)cc([C@@H](C)NC(=O)c3cc(OCCN(C)C)ccc3C)c2)n1 | viral replication, plaque | Vero-AT |  | 0.51
CN(C(=O)CN1CCCC2=CC3CC(CN4CCCCC34)C21)c1ccc(Br)cc1 (stereo not drawn) | pseudovirus entry |  | pseudovirus | 42.3
CN(C)CCNC(=O)C[C@H](Cc1ccc(F)cc1)NC(=O)[C@@H](Cc1ccc(Cl)cc1Cl)NC(=O)[C@H](N)Cc1ccccc1C#N | viral replication | USA-WA1/2020 | 24 h | 1.2
Cc1cc(O)ccc1CN(C)[C@H](C)c1cccc2ccccc12 | viral replication | Vero E6, USA-WA1/2020 | 24 h | > 60

SMILES | assay | system | conditions | EC50 [µM]
COc1cc(O)c2c(c1)/C=C/C[C@H](O)[C@H](O)C(=O)/C=C\C[C@H](C)OC2=O | viral replication | Vero E6, USA-WA1/2020 |  | 2.3
CCOC(=O)CNC(=O)c1ccccc1[Se][Se]c1ccccc1C(=O)NCC(=O)OCC | viral replication, RT-qPCR | Vero | 48 h | 21.3
COc1cc(O)ccc1CN(C)[C@H](C)c1cccc2ccccc12 | viral replication | Vero E6, USA-WA1/2020 | 24 h | > 60
CO/C1=C\C(C)=C\[C@@H](C)[C@@H](O)[C@@H](C)C/C(C)=C/C=C/[C@H](OC)[C@@H]([C@@H](C)[C@@H](O)[C@H](C)C(=O)/C=C/[C@H](C)[C@H](O)C(C)C)OC1=O | viral replication, measured: dsRNA | Calu-3, Delta B.1.617.2 |  | 0.05
Cn1cc(C(=O)Nc2ccccn2)c2ccccc21 | viral replication |  |  | > 100
Cc1ccc(CNC(=O)c2ccc(Br)cc2)cc1C(=O)N[C@H](C)c1cccc2ccccc12 | viral replication | Vero C1008, WK-521 ancestral Wuhan |  | 26.2 ± 3.9
CCC(C)Nc1[nH]c2c(C(F)(F)F)cc(Cl)cc2c(=O)c1C(=O)C(C)C (stereo not drawn) | viral replication, high content screening | Vero |  | 14.2
O=C(Oc1ccc(CCCCCCCCC(=O)c2c(OC(=O)c3ccccc3)cccc2OC(=O)c2ccccc2)cc1OC(=O)c1ccccc1)c1ccccc1 | MTT | Vero E6/TMPRSS2, WK-521 ancestral |  | 14
C#CCCCNCCNc1ccnc2cc(Cl)ccc12 | viral replication | Caco-2 | 30 h | 5.9 ± 3.2
Cc1ccc(OCCN(C)C)cc1C(=O)N[C@H](C)c1cc(-c2cnn(C)c2)cc(-c2cnn(C(F)F)c2)c1 | viral replication | Caco-2, icSARS-CoV-2-nLuc reporter |  | 0.23
CN(C)c1ccc(N(Cc2cc(Cl)cs2)C(=O)Cc2cncc3ccccc23)cc1 | viral replication, dsRNA staining | Calu-3, Omicron BQ.1.1 |  | 0.2
Cc1ccc(CNC(=O)c2c(F)cccc2Br)cc1C(=O)N[C@H](C)c1cccc2ccccc12 | viral replication | Vero C1008, WK-521 ancestral Wuhan |  | > 100
CN(C)c1ccc(N(Cc2cc(Cl)cs2)C(=O)Cc2cncc3cccc(O)c23)cc1 | dsRNA staining | Caco-2, Omicron BA.5 |  | 0.043
Cc1ccc(CNC(=O)c2c(Cl)cc(Cl)cc2Cl)cc1C(=O)N[C@H](C)c1cccc2ccccc12 | viral replication | Vero C1008, WK-521 ancestral Wuhan |  | 34.9 ± 2
Clc1cc(Cl)cc(CCCN2CCCC3=CC4CC(CN5CCCCC45)C32)c1 (stereo not drawn) | pseudovirus entry |  | pseudovirus | 7.4
COc1ccc2c(O[C@@H]3C[C@H]4C(=O)N[C@]5(C(=O)NS(=O)(=O)C6CC6)C[C@H]5/C=C\CCCCN(C)C(=O)[C@@H]4C3)cc(-c3nc(C(C)C)cs3)nc2c1C | viral replication, plaque | Vero C1008 | 16 h | 1.4 ± 0.09
NCCNc1ccnc2cc(Cl)ccc12 | viral replication | Caco-2 | 30 h | 18.9 ± 10
N#C[C@@]1(c2ccc3c(N)ncnn23)O[C@H](CO)[C@@H](O)[C@H]1O | viral replication |  | 1 h | 3.37
CC(C)(C)[C@H](NC(=O)C(F)(F)F)C(=O)N1C[C@H]2[C@@H]([C@H]1C(=O)N[C@H](C#N)C[C@@H]1CCNC1=O)C2(C)C | dsRNA staining | Caco-2, Omicron XBB.1.5 |  | 0.5
CNC(=O)C[C@H](Cc1ccc(F)cc1)NC(=O)[C@@H](Cc1ccc(Cl)cc1Cl)NC(=O)[C@@H](Cc1ccccc1C#N)NC(C)=O | viral replication | USA-WA1/2020 | 24 h | > 10
Cc1ccc(N2CC(N3CCC(C)(O)CC3)C2)cc1C(=O)NC1(c2ccc3c4c(cccc24)CC3)CC1 | viral replication | Vero C1008, wild type |  | 0.233
O=C(c1cc(Cl)cc(Cl)c1)N1CCCC2=CC3CC(CN4CCCCC34)C21 (stereo not drawn) | pseudovirus entry |  | pseudovirus | 65.6
Cc1ccc(CNC(=O)c2ccc(Cl)cc2)cc1C(=O)N[C@H](C)c1cccc2ccccc12 | viral replication | Vero C1008, WK-521 ancestral Wuhan |  | 15 ± 0.6
NC(=O)CCC1CCCN(C(=O)c2c[nH]n3c2nc(=O)c2ccccc23)C1 (stereo not drawn) | viral replication |  |  | > 100
CN(C)CCCCCNC(=O)C[C@H](Cc1ccc(F)cc1)NC(=O)[C@@H](Cc1ccc(Cl)cc1Cl)NC(=O)[C@H](N)Cc1ccccc1C#N | viral replication | USA-WA1/2020 | 24 h | 1.7
